Measurements from different studies.
Lines come from different studies, so protocols differ. ± marks the error that the study gave.

Compound | assay | test system | conditions | scale | quantity | value
CCCN(C)c1cc(C(F)(F)F)nc(SCCC(=O)NCc2ccco2)n1 |  | Wistar rat | intraperitoneal, 25 mg/kg, 2 h post-dose, isoflurane anaesthesia | baseline: vehicle control | heart rate | no effect
CC(C)CC(=O)Nc1ccc([C@H]2[C@@H](F)[C@@H](F)C[C@@H](F)[C@H]2F)cc1 | hepatocyte stability | cryopreserved mouse hepatocytes | 1 µM |  | hepatic clearance | 2.16 L/h/kg
CN(O)C(=O)CCC(=O)NCCCN(CCCCN(CCCNC(=O)CCC(=O)N(C)O)C(=O)CCC(=O)N(C)O)C(=O)CCC(=O)N(C)O.[89Zr] | radio-TLC | aqueous buffer | 3 d, pH 7, 37 °C, 89Zr-labelled complex, with: DTPA 1000-fold excess |  | intact complex | 91.6 ± 1.1%
CC(C)OC(=O)[C@H](CO)NCc1cc(Cl)c(OCc2cccc(-c3ccccc3)c2Br)cc1OCc1cccnc1 |  | hPD-L1 MC-38 tumour, humanised hPD-1 C57BL/6 mouse | oral, 2.5 mg/kg × 21, day 1, baseline |  | body weight | 19.8 ± 1 g
CCCCCC(=O)[O][Pt]([Cl])([Cl])[O]C(=O)CCCCC.N.N | ICP-MS, item: platinum | nude mice, blood | intravenous, equimolar single dose |  | CL2 | 8.74e-05 mg/(ng/mL)/h
O=C(NC1CCOCC1)c1ccc(C2CCCCC2)cc1 | hepatocyte stability | cryopreserved mouse hepatocytes | 1 µM |  | hepatic clearance | 4.14 L/h/kg
CC(C)=CCc1cc(C(=O)/C=C/c2ccc(O)cc2)c(O)cc1O | phase I metabolism | mouse liver microsomes |  |  | CLint | 10.7 µL/min/mg
Cc1noc(C)c1Cn1cc(N2C(=O)CN(Cc3cccc(O[C@@H]4O[C@H](C(=O)O)[C@@H](O)[C@H](O)[C@H]4O)c3)C2=O)cn1 |  | Sprague-Dawley rat, male | oral, 30 mg/kg of parent drug, 1 h |  | plasma concentration | 5.57 µg/mL
F[C@@H]1[C@H](c2ccc(-c3ccc(N4CCCC4)nc3)cc2)[C@H](F)[C@H](F)C[C@@H]1F | hepatocyte stability | cryopreserved mouse hepatocytes | 1 µM |  | hepatic clearance | 1.26 L/h/kg
COc1ccc2c(c1)CN(C(=O)CCN1CCC(Cc3ccccc3)CC1)CCS2 |  | dog plasma | 250 ng/mL |  | fu | 0.054
COC1C=COC2(C)Oc3c(C)c(O)c4c(c3C2=O)C2=NC3(CCN(CC(C)C)CC3)NC2=C(NC(=O)C(C)=CC=CC(C)C(O)C(C)C(O)C(C)C(OC(=O)Nc2cccnn2)C1C)C4=O (centres unmarked) |  | CD-1 mouse, plasma | oral, 12.5 mg/kg, efficacy dose |  | AUC | 84.2 µg·h/mL
Cc1cc(F)ccc1-c1cc(N2C[C@H]3COC(O)CN3C[C@H]2CO)ncc1N(C)C(=O)C(C)(C)c1cc(C(F)(F)F)cc(C(F)(F)F)c1 (some centres unmarked) |  | pooled human liver microsomes | pH 7.4, substrate depletion |  | pathway contribution to clearance | 100%
Cc1ccc(CN2C(=O)/C(=N\c3ccc(Cl)cc3Br)c3ccccc32)cc1 |  | mouse, blood | 100 mg/kg |  | Mon% | 2.82 ± 0.44%
O=C(CC1CCOCC1)Nc1ccc([C@H]2[C@@H](F)[C@@H](F)C[C@@H](F)[C@H]2F)cc1 | liver microsome stability | dog liver microsomes | 1 µM |  | hepatic clearance | 0.438 L/h/kg
COc1cccc(OC)c1-c1cc(C(=O)NC2(C(=O)O)C3CC4CC(C3)CC2C4)nn1-c1ccc(C(=O)N(C)CCOCCN(C)C(=O)[C@H](CCCCNC(=O)[C@H](CC(C)C)NC(=O)C2OC2C(=O)O)NC(=O)CN2CCN(CC(=O)[O-])CCN(CC(=O)[O-])CCN(CC(=O)[O-])CC2)cc1C(C)C.[177Lu+3] (mixture of isomers) |  | mouse, HT-29 xenograft | 168 h post injection, biodistribution | baseline: tumour over kidney uptake | tumour-to-kidney ratio | 0.69
CNC(=O)c1ccc([C@H]2[C@@H](F)[C@@H](F)C[C@@H](F)[C@H]2F)cc1 | liver microsome stability | dog liver microsomes | 1 µM |  | hepatic clearance | 0.72 L/h/kg
CC(C)C[C@H](NC(=O)[C@H](CO)NC(=O)[C@H](CCC(=O)O)NC(=O)CNC(=O)[C@H](C)NC(=O)OCc1ccccc1)C(=O)N[C@@H](Cc1ccc(O)cc1)C(=O)N[C@@H](CCC(=O)O)C(N)=O | metabolic stability | human, plasma | 2 h |  | compound remaining | 88.3%
